Published values from different studies.
Numbered parts are unrelated; each lists some results of a single study.

Set 1 — technique: competition protein-binding microarray; molecule type: double-stranded DNA, one strand shown; sample: in vitro; concentration: 2 µM; with: Pho4 competitor, 0.05 µM; direction: higher = stronger binding; constant ends, left off below: … GTCTTGATTCGCTTGACGCTGCTG
Target: Centromere-binding protein 1, full length, His-tagged (CBF1, Saccharomyces cerevisiae, UniProt P17106, residues 1-351)
Sequence of UniProt P17106 (whole entry, looked up): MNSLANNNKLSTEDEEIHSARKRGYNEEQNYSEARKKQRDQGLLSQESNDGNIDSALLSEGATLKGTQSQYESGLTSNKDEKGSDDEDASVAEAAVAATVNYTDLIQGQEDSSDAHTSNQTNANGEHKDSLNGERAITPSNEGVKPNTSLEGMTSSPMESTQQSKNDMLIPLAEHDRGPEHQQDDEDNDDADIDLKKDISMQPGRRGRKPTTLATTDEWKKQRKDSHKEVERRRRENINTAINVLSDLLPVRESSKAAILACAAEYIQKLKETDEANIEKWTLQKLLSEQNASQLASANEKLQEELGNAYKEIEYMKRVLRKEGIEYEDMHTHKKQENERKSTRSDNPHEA
Notes: whole 60-bp probe, lowest competitor level
Oligonucleotide | fluorescence intensity [a.u.]
CTTTCCCGATCTTTTCACGTGCTATTAGCACATTTG | 1110
TGTGATTCCTCGGGCCACGTGAAATGAATCAGCCCT | 823
CATGCTTTTGGGTTACCACATTCAACAATAACTCGA | 100
CTATATACATGTATACACGTGAGATAATAAATTATG | 1990
TCTAATGGTACCCCAAATATCTTATTATGAGTTTTA | 62.1
TCGAGGACGTATTGGCAGGTGAAGTTTTCAGCAACT | 76.8
CAGTTATGAGACTGTATCATGACAATACCTTATTTG | 84
CTTTCCCGATCTTGTGTTGTGGGTGTAGCACATTTG | 92.4
AACATCTGCGGACAGCACGTGCGGATTAATTCTCAA | 3010
AAAACAAGATTCTCCACCGTGATGGAAAACCTCAAA | 90.2
CGTCCTAGTGATTGTCACGATACTTCCATGAGGAAG | 234
CACTGTTCGCTTCGTCATGATCAATGGTGTTACTGA | 79.9
TGCCCAAAGCTCTGGCACGTATGAAACTGCTTTTCG | 62.3
AAAAGTTTAAACTGGCACGGGCTATTGCGTCTCATA | 92.2
CGGGGTTAAGTTTTTCACGTGTAGTGCTTGCAGCAG | 466
TCAAAAAGGGACAATCACCTGGATGCATAAGGAGGA | 76.1
TGCGCAACAACTTGACTCGTGGGTGTATGTCTAGAA | 74.9
CTTTCCCGATCTTGTCACACTACTTTAGCACATTTG | 95.6
TTCACTTGTTTGAAAAACGTGTCGGAGGGATGTTCT | 106
GCGAAATTATAGGGTCAGGTGATATTTGCGATGTGA | 1890
CTTCTGTAAATTTGCAACGTGGGTGGACGCGCCCCG | 83.2
AAAGCGGTAATTTGTTGCGTGGGTGCAGATATCTAT | 93
AAATTACTAAGTTGGCTGGTGGGTGACGCCGTATGA | 60.9
CTTTCCCGATCTTGTCCGGTGGGTGTAGCACATTTG | 76.3

Set 2 — technique: RNA Bind-n-Seq; molecule type: RNA; sample: in vitro; concentration: 365 nM; relative to: no-protein control; direction: higher = stronger binding
Target: RNA binding protein fox-1 homolog 2, RRM domain, GST-SBP tag (RBFOX2, Homo sapiens, UniProt O43251-10, residues 100-194)
Notes: natural RNA segment, single round, ends assumed
Constant ends, left off below: GGGAGUUCUACAGUCCGACGAUC … UGGAAUUCUCGGGUGCCAA
Construct (chain): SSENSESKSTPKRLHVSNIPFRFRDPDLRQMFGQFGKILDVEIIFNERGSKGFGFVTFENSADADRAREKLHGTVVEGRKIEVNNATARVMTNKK
Oligonucleotide | RBNS enrichment (R)
GCAGAAGAUCAAAAUGCUAAAACAUGAUGAUUAGUGCACACCGUGUGCCAUAGAAUGGCACAUGUCAUUGCCCACUUCUGUGUAGACAUGGUUCUGGUUUAACUAAUAUU | 0.233
UGUGUACUCAUUCUUUUCCCAAGCUGACGAGGUCUCUCCCGAGUGGCGCUUCGAAAGGCGUGCAUGCAGAAAUGGCCGAGGACAUGCAGGUUUGGGUGGUGUGCCUGCAG | 11
GCCCUGUGAGAGGAAGAUGGGGCCACCCCAGGGCUCCCAAUGCACUCGGAAGUCAGCAGUACCAGGAGCUCAGGCUGAGAAGGACAGCAGUGCGGCUUCAGGACGAAGCU | 0.525
CUGGGCUUGGAUUUGCAUUACAUUGACCCCAGCCCUGCAGUGGAACCUAAUAAAAGCGCCUGAAGCACUGCCUGGUCCUGGUGUGUCCUUCCUGCGCACUCAACUGUUGU | 1.36
AGCUGGGCAAGACCACUGGGAGGCCUGAGAGUGGGCCAGCUCGCUGCUCAGGCGAAUUUCUCAUUUCAAGCCACUGGGGAAACUGAGGCAAAACCAUACUUAGUCAUCAC | 0.234
CUGGCAUUAUGCAGCAGCCUCACACACCUGUCCUCUCCUUCUUCAUGUCCUACAGUUCUGCUAUCACCUGACUAGAAUAGCCCUCUAGGCAACAGUGCUCAAAUGUAUGA | 0.474
UAUCUUCUAUGUCUCUGUCAAGGACAGAAGUUGUCAGUUUAAUACACGAGCUCUUGUGUUGAAAGUGUCCAGGCCGUAGAACUUCAUUGCUACUGACUUUACACAGUUUA | 0.673
UGCAGACUUGAAAAAGCUCUGUCUCCAACAGGGCCUCCUCUGAUCUCAGGAGCCUCAACUGUUUAUUUUGUAGCUGAUGGCACAGUUGAGCCCAAAGCAGGUUCUAAUAA | 0.392
GCGAGUAGAGAGCAGCCCUCAUUCACCACCUGGUCCCAGACGUGCUUCAGUCCUCGUCCUCUCUUUGUGGCUGGCUCCCAGCCUUCUCUUUCCUCUUGAGGAUACUUAGG | 0.293
GUCCUGGGCGCUUCCCUUUUAAGCAAGGGCGCCUCACCUGCUCUUCAAGAAACAGCGAGAGGGAGACCCAGGGGGCUGAAACUUGAACUCUGGUUCUUUUAAAAUUAAUU | 1.02
AAGGUCAUCAGAAUGGAGUGAGUGCUCCCUGGGAAGGCAGGCAGGACCUUCAACCAUUGGACCAAGAAGUCAUUGCUUAUGGGUCUCAGGGGCCAUCAAACUGUCUACCU | 0.243
GUGAGGUAUUAAAUAUAUCUGAUACCUGAUGGGGCUGUGCCCCAUCCAGCCCUCAAAGUAGUCUCUGUAAAUCGCUGGGAUAGUAUUCAUAUUGUGUCAUCUCAGUGUUA | 0.326

Set 3 — technique: universal PBM; molecule type: double-stranded DNA, one strand shown; sample: in vitro; concentration: not given; direction: higher = stronger binding
Target: Sal-like protein 4, full length isoform B (SALL4, Homo sapiens, UniProt Q9UJQ4-2, residues 1-616)
Notes: 8-mer, flanks averaged, mean of replicates
Oligonucleotide | E-score
CGTGCAGA | -0.0773
CTGAAGAA | -0.131
AGAATGCG | -0.129
CACTCTAA | 0.0579
ACCCCGTG | -0.259
CACGGGGA | -0.308
GTACAAGA | 0.126
CCTATCGC | -0.237
CGCGAGAA | -0.147
AACTCACG | 0.0915
CAGCCAGA | -0.16
AGTGACTG | -0.187
CGCCTTCC | -0.235
GACCTTTA | 0.0919
ATAATTGG | 0.273
AGTTGCCC | -0.0296
CACTAATA | 0.168

Set 4 — technique: RNA Bind-n-Seq; molecule type: RNA; sample: in vitro; concentration: 200 nM; notes: whole 134-nt RNA, ends assumed; with: 150 mM LiCl; relative to: input library; direction: higher = stronger binding; library: 7-deaza-guanosine replaces G
Target: Fragile X messenger ribonucleoprotein 1, C-terminal low-complexity region (Fmr1, Mus musculus, UniProt P35922)
Constant ends, left off below: GGGAGUUCUACAGUCCGACGAUC … UGGAAUUCUCGGGUGUCAAGG
Oligonucleotide | log2 enrichment
UCAAGUCCUGUGCUACACAUCGUAUGUACCGAAUCGGAAAGGAGGUUUUUUUGGAAAGUAUUAUGUUACGCCGUUCGGAUCUGCACUUCC | -0.898
CACAGACAACACGCACCCACACAGACACAGAGGGAAGGGGUUGGGAUGGGGACAGGGUGCACAGCAGGGCGGGGUAGGACCCCAGCACCU | -1.01
ACCAUGCAGGUGGGCAUCUUUGGGAAGUGGGGCAAGGGGGGCAUAGGGAGGGGGGUAACACUUUGGGAACAGGUGGUCCCAGGUCGUUUC | 0.336
CAAGUCCUGUGCUACACAUCGUAUGUACCGAAUCGGUUUUUGGAAAGGAAAAAGGAAAGUAUUAUGUUACGCCGUUCGGAUCUGCACUUC | -1.23
UCCUGUGCUACACAUCGUAUGUACCGAAUCGGGGAAAAAAGGGAAAAAAGGGAAAAAAGGAAAGUAUUAUGUUACGCCGUUCGGAUCUGC | 0.229
ACCAUGCAGGUGGGCAUCUAAAGGAAGUGGGGCAAGGGGGGGAUAGGGAGGGGGGUAACACUUUGGGAACAGGUGGUCCCAGGUCGUUUC | 1.47
AAGUCCUGUGCUACACAUCGUAUGUACCGAAUCGGGGCCCGGGGCCCGGGCCCGGGGAAAGUAUUAUGUUACGCCGUUCGGAUCUGCACU | -2.28
CUGUGCUACACAUCGUAUGUACCGAAUCGGGGUUUUUUUGGGGUUUUUUUGGGGUUUGGGGAAAGUAUUAUGUUACGCCGUUCGGAUCUG | 1.34
UUCCUCAAGUCCUGUGCUACACAUCGUAUGUACCGAAUCGGUGGUGGAGGAAAGUAUUAUGUUACGCCGUUCGGAUCUGCACUUCCAGCA | -0.894
ACCAUGCAGGUGGGCAUCUUUGGGAAGUGGGGCAAAGGGGGGAUAGGGAGGGGGGUAACACUUUGGGAACAGGUGGUCCCAGGUCGUUUC | 1.26
ACCAUGCAGGUUGGCAUCUUUGGGAAGUGGGGCAAGGGGGGGAUAGGGAGGGGGGUAACACUUUGGGAACAGGUGGUCCCAGGUCGUUUC | 1.5

Some of these lines once more (set 4):
Oligonucleotide | log2 enrichment
UCCUGUGCUACACAUCGUAUGUACCGAAUCGGGGAAAAAAGGGAAAAAAGGGAAAAAAGGAAAGUAUUAUGUUACGCCGUUCGGAUCUGC | 0.229
ACCAUGCAGGUGGGCAUCUAAAGGAAGUGGGGCAAGGGGGGGAUAGGGAGGGGGGUAACACUUUGGGAACAGGUGGUCCCAGGUCGUUUC | 1.47
AAGUCCUGUGCUACACAUCGUAUGUACCGAAUCGGGGCCCGGGGCCCGGGCCCGGGGAAAGUAUUAUGUUACGCCGUUCGGAUCUGCACU | -2.28
CUGUGCUACACAUCGUAUGUACCGAAUCGGGGUUUUUUUGGGGUUUUUUUGGGGUUUGGGGAAAGUAUUAUGUUACGCCGUUCGGAUCUG | 1.34
